# Experimental data gathered from unrelated publications.
# A part holds a random share of what one study measured. Substitutions count along the parent as printed.

# Series 1
# Target: CCNB2, cyclin fold, Cln2 fusion (human)
# Method: yeast growth competition, sequencing
# Matrix: yeast
# Notes: weak parent motif
# Reference: not given
# Reading: higher = stronger binding
# Starting sequence: CDKN1C docking peptide (human); TSACRSLFGPVDH; partner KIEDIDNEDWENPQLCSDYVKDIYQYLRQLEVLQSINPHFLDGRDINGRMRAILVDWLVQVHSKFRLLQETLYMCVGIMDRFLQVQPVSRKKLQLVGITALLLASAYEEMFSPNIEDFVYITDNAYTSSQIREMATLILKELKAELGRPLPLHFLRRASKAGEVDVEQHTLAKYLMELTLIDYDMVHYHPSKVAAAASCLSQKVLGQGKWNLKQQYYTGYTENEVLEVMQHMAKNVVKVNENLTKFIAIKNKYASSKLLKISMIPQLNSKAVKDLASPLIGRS
Substitution,normalised enrichment score
V11A,0.142
R5K F8L,0.111
R5A,-0.302
L7A,0.0207
R5A L7A,-0.132
C4A,0.0404
G9A,0.332
D12A,0.0803
R5K,0.347

# Series 2
# Target: UBE2H UBC core domain (UniProt P62256)
# Chain of UniProt P62256 (whole entry, looked up): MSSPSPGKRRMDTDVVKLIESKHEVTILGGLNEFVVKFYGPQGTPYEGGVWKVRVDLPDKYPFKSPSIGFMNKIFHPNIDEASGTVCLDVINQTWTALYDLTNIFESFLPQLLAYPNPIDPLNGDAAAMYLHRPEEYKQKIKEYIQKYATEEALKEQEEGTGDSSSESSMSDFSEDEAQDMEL
# Method: yeast two-hybrid
# Matrix: yeast
# Notes: mostly zero background
# Reference: not given
# Reading: higher = stronger interaction
# B1: SYTL4 RING domain (UniProt Q96C24); chain RGSQHYSDRTCARCQESLGRLSPKTNTCRGCNHLVCRDCRIQESNGTWRCKVCAKEIELKKAT
# B2: MDM4 RING domain (UniProt O15151); chain MEDCQNLLKPCSLCEKRPRDGNIIHGRTGHLVTCFHCARRLKKAGASCPICKKEIQLVIKVF
# B3: RFWD3 RING domain (UniProt Q6PCD5); chain ASMDEEEGDTCTICLEQWTNAGDHRLSALRCGHLFGYRCISTWLKGQVRKCPQCNKKARHSDIVV
# B4: RBCK1 RING domain (UniProt Q9BYM8); chain SLVLNTEPAECPVCYSVLAPGEAVVLRECLHTFCRECLQGTIRNSQEAEVSCPFIDNTYSCSGKLLEREIK
# B5: RNF133 RING domain (UniProt Q8WVZ7); chain DEEINPNGDSCVICFERYKPNDIVRILTCKHFFHKNCIDPWILPHGTCPICKCDILKVLGIQ
# B6: UBOX5 RING domain (UniProt O94941); chain EQPGSILGPECASCKRVFSPYFKKEPVYQLPCGHLLCRPCLGEKQRSLPMTCTACQRPVASQDVLR
# B7: TRIM62 RING domain (UniProt Q9BVG3); chain MACSLKDELLCSICLSIYQDPVSLGCEHYFCRRCITEHWVRQEAQGARDCPECRRTFAEPALAP
Sequence,lacZ reporter activity
KLRKLKEAMLCMVCCEEEINSTFCPCGHTVCCESCAAQLQSCPVCRSRVEHVQHVY (MYLIP RING domain (UniProt Q8WY64)),0
B1 (SYTL4 RING domain),0
B2 (MDM4 RING domain),0
B3 (RFWD3 RING domain),0
B4 (RBCK1 RING domain),0
PEDRESLKSACVVCLSSFKSCVFLECGHVCSCTECYRALPEPKKCPICRQAITRVIPLY (MUL1 RING domain (UniProt Q969V5)),0
B5 (RNF133 RING domain),0
YQNEVDDDLVCHICLQPLLQPLDTPCGHTFCYKCLRNFLQEKDFCPLDRKRLHFKLCKK (LNX2 RING domain (UniProt Q8N448)),0
B6 (UBOX5 RING domain),0
B7 (TRIM62 RING domain),0
AMYLQENGIDCPKCKFSYALARGGCMHFHCTQCRHQFCSGCYNAFYAKNKC (RNF31 RING domain (UniProt Q96EP0)),0
AVPSGLEENLCKICMDSPIDCVLLECGHMVTCTKCGKRMNECPICRQYVIRAVHVF (RFFL RING domain (UniProt Q8WZ73)),0

# Series 3
# Target: Interferon regulatory factor 7, full length, phosphomimetic (IRF7, Homo sapiens, UniProt Q92985, residues 1-503, S101K/S471D/S472D/S475D/S476D/S477D/S483D/S484D/S487D)
# Chain of UniProt Q92985 (whole entry, unmodified, looked up): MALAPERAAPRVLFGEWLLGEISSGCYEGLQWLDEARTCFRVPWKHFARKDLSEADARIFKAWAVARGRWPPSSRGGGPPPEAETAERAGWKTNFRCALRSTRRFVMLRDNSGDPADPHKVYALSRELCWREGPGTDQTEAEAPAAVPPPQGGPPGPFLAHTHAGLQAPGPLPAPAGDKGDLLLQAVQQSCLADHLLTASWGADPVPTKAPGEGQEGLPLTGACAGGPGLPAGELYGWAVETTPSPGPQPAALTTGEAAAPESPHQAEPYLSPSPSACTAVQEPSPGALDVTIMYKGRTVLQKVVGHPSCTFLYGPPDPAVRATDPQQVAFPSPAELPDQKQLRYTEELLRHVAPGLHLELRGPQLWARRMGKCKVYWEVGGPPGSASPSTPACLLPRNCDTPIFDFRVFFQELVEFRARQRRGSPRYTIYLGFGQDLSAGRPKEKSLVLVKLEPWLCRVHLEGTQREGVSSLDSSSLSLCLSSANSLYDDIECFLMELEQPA
# Method: protein-binding microarray
# Form: double-stranded DNA, one strand shown
# Matrix: in vitro
# Tested at: 250 nM
# Notes: 60-bp whole probe
# Together with: salmon DNA 0.4 mg/ml
# Reference: random background probes
# Reading: higher = stronger binding
# All sequences stand within: GCCTAGCAC … GTCTTGATTCGCTTGACGCTGCTG
Oligonucleotide,log fluorescence [z-score]
GACGAACTGAGACTGGAGTCGTGCTAG,-0.135
TGAGGTATCGGACTGGGTTAGTGCTAG,-0.411
TCCTCTTTCACTGGTCCTCATGTGCTA,1.65
TCAAATAATCTTTTCACACTGTGCTAG,0.127
TTAGGACTCCTTATCCTTTAGTGCTAG,0.41
TCATTTTTTTTTTTTGTACTGTGCTAG,0.686
TCACTAATCTCACTCTGACTGTGCTAG,0.347
TCCCATTAAATTTTAATAACGTGCTAG,0.447
GACGATTTCAGTTTCGAGGCGTGCTAG,3.24
GACGATTTTAGTCTCGAGACGTGCTAG,0.837
GACGGTATCGGACTGGGAACGTGCTAG,-0.211
TTAGGTTCGCTTTTCCTTTAGTGCTAG,8.97
GACGGTATCAGTTTCGAGACGTGCTAG,4.08
GACGGTTCCCTTTTCCTGATGTGCTAG,2.69
TCACATTTAGAAAATGGAACTGTGCTA,0.872
TTAGGTATCGGTATCGGTCAGTGCTAG,1.41
GACGGTTTCAGTTCCGGGACGTGCTAG,3.65
GACGGTATCCTACTGCTGAAGTGCTAG,-0.394
TTGGGTTTCGACTTTCGGTTAGTGCTA,9.71
TTAGAACTGATTTTCGATTAGTGCTAG,2.49
TTTAGGTCCCTTTTCATGCTGTGCTAG,2.32
TTAGGACTGGGACTGGATTAGTGCTAG,-0.308

# Series 4
# Target: ABI1, truncated, D143A, DHFR fusion (Arabidopsis thaliana, UniProt P49597)
# Method: DHFR PCA, dose-response
# Matrix: yeast
# Notes: Hill fit, mean, not affinity
# Together with: (+)-ABA, dose series
# Reading: lower = more sensitive
# Starting sequence: PYL1, truncated, DHFR fusion (Arabidopsis thaliana, UniProt Q8VZS8); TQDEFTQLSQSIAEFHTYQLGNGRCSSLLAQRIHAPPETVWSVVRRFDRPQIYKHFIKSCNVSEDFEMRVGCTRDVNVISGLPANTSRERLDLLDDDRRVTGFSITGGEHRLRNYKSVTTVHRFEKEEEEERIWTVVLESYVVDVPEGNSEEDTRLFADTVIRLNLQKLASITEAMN
Substitution,ABA EC50
E130L,4.64 µM
D92Y,172 µM
S42H,5.52 µM
E14A,6.97 µM
I79A,6.66 µM
E67W,9.83 µM
K54R,177 µM
F5V,2.14 µM
R45H,314 µM
H122L,171 µM
G81R,395 µM
A175L,2.77 µM
P37V,3.83 µM
G71R,271 µM
R49A,2.68 µM
A170T,18.2 µM

# Series 5
# Target: BATF2, bZIP domain (human)
# Method: DHFR protein complementation
# Matrix: yeast
# Notes: single substitutions, most at no-binding floor
# Reference: wild-type JUN-FOS pair
# Reading: higher = stronger binding
# Starting sequence: JUN, bZIP domain (human); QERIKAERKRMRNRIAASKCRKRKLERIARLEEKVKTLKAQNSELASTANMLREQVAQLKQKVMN; partner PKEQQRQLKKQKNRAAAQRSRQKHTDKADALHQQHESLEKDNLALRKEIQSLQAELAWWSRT
Substitution,binding fitness [natural log]
A49H,-1.28
E54I,-0.46
E33G,-0.624
V35W,-1.29
A46W,-0.647
M51F,-0.322
N42S,-1.31
K34H,-0.362
E32N,-0.801
K36W,-0.727
L31T,-1.05
R53L,-1.19
S43I,-0.157
M51I,-0.275
K39P,-1.28
M51A,-0.148
L38A,-0.352
Q41C,-1.53
V56H,-1.55
E54A,-0.464
A49L,-0.502
L31P,-1.38
A40V,-0.337
V35T,-0.586
T37K,-0.111

# Series 6
# Target: Histone acetyltransferase KAT6A, winged helix 1, GST fusion (KAT6A, Homo sapiens, UniProt Q92794, residues 1-85)
# Method: protein binding microarray
# Form: double-stranded DNA, one strand shown
# Matrix: in vitro
# Tested at: not given
# Notes: 8-mer, flanks averaged, mean of 2 arrays, mostly near background
# Reference: not given
# Reading: higher = stronger binding
# Target sequence (chain): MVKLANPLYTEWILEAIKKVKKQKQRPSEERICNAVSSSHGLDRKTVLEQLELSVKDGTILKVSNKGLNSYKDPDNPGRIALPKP
Oligonucleotide,E-score
GTGACCCA,-0.124
CCTGTTTC,-0.239
GGAAGGAC,-0.0271
ACCTATAT,-0.104
AGGTTTTG,-0.0397
ACTCCTAA,-0.166
AATACAGA,-0.0664
CAATTTAA,-0.213
CCCCATGA,-0.369
GCTATAGC,0.0519
AAATAAAT,-0.167
AAAAACGG,0.0673
GCGGAACA,0.265
CACCTGAG,-0.192
GCCCGTGA,0.294
CACGAAAC,0.0126
ACGCGCCT,0.298
AAGCTGCG,0.0102

# Series 7
# Target: Sal-like protein 4, full length isoform A (SALL4, Homo sapiens, UniProt Q9UJQ4, residues 1-1053)
# Chain of UniProt Q9UJQ4 (whole entry, looked up): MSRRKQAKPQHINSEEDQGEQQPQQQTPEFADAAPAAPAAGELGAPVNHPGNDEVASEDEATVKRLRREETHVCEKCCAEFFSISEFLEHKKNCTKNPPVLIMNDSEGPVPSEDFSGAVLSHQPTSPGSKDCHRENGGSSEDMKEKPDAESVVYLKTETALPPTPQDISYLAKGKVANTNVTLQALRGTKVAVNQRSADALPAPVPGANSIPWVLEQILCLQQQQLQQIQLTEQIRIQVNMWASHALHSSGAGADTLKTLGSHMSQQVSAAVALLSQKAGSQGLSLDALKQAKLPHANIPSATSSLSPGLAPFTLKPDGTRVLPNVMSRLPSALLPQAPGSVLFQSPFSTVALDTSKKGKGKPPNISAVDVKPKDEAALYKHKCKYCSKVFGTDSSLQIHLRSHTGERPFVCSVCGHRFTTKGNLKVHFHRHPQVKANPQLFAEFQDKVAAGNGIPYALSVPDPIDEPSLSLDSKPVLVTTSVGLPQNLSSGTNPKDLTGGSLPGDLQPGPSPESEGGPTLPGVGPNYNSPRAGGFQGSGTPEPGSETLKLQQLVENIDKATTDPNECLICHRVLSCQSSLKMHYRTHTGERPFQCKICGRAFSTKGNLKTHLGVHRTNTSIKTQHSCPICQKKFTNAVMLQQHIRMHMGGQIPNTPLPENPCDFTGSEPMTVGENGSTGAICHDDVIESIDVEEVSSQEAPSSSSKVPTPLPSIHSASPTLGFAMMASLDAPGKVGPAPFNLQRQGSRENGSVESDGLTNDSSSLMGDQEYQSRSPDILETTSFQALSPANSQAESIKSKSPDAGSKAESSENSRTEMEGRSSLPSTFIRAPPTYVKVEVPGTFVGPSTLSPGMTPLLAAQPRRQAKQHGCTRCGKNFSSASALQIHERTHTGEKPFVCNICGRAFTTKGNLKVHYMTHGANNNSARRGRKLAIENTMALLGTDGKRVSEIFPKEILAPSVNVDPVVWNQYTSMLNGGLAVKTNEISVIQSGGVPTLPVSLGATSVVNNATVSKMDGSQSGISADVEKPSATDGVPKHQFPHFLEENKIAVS
# Method: universal PBM
# Form: double-stranded DNA, one strand shown
# Matrix: in vitro
# Tested at: 600 nM
# Notes: 8-mer, flanks averaged, mean of replicates
# Reading: higher = stronger binding
Oligonucleotide,E-score
GGACACTA,-0.103
GCAGAACC,-0.213
AGAACACA,-0.0621
CAGTAAAA,0.287
ACAAGCCG,-0.188
ATGGCATA,0.264
AATTCAGA,0.213
GCGAGACC,-0.232
CCTACGCG,-0.304
TGGTTGAA,-0.0452
CATATAGG,0.246
ATGGAGAG,0.0991
CTATACCC,0.0414
ATGTCCTG,-0.103
ACGCATTG,-0.046
AGTAACAG,0.246
CATTATGA,0.317
CACGACGA,-0.0934
AGTAGTCA,0.00668
AACACGTC,-0.0694
CTCTGACC,-0.292
AGTTGGAA,0.0199
ACATCGAG,-0.0624
TATACTGA,0.318

# A few entries again (series 5):
Substitution,binding fitness [natural log]
V35W,-1.29
A46W,-0.647
M51F,-0.322
N42S,-1.31
K34H,-0.362
E32N,-0.801
K36W,-0.727
L31T,-1.05
R53L,-1.19
S43I,-0.157
M51I,-0.275
K39P,-1.28
M51A,-0.148
L38A,-0.352
Q41C,-1.53
V56H,-1.55
E54A,-0.464
A49L,-0.502
L31P,-1.38
A40V,-0.337
V35T,-0.586
